{"data": "Published values collected from several papers", "note": "Numbers after ± are the reported error."}
{"Structure (SMILES)": "Cc1cc(Nc2ccc(S(F)(F)(F)(F)F)cc2)n2nc(C(C)(F)F)nc2n1", "organism": "Plasmodium vivax", "assay": "12-lead Holter ECG", "test system": "human malaria patients", "conditions": "oral, 800 mg, QTc above 500 ms", "quantity": "patients with QTcB above threshold", "value": "0%"}
{"Structure (SMILES)": "CCOC(=O)C(C)c1n[nH]c2nc(N)[nH]c(=O)c2c1=O (stereo not drawn)", "organism": "Escherichia coli", "assay": "LC-MS/MS", "test system": "BW25113", "conditions": "100 µM, 10 min, 37 °C", "quantity": "intracellular accumulation", "value": "9.64 ± 1.4 µM"}
{"Structure (SMILES)": "O=C(O)CCCOc1ccc(F)cc1-c1cc(-c2ccccc2C(F)(F)F)n(-c2ccccc2)n1", "organism": "Escherichia coli", "assay": "Ames reverse mutation test", "test system": "WP2 uvrA", "conditions": "concentration not given, without S9", "quantity": "mutagenicity", "value": "negative"}
{"Structure (SMILES)": "N[C@@H](CS)C(=O)O", "organism": "Escherichia coli", "test system": "MG1655, M9 medium", "conditions": "1 mM, 1 mM equimolar amino acid mixture", "quantity": "uptake half-time", "value": "4.9 h"}
{"Structure (SMILES)": "O=C(O)c1cn(C2CC2)c2cc(N3CCNCC3)c(F)cc2c1=O", "organism": "Escherichia coli", "assay": "LC-MS/MS", "test system": "BW25113", "conditions": "100 µM, 10 min, 37 °C", "quantity": "intracellular accumulation", "value": "50 µM"}
{"Structure (SMILES)": "N[C@@H](CC(=O)O)C(=O)O", "organism": "Escherichia coli", "test system": "MG1655, M9 medium", "conditions": "1 mM, 1 mM equimolar amino acid mixture", "quantity": "uptake half-time", "value": "6.4 h"}
{"Structure (SMILES)": "Cc1cc(N)c2c(OCC(C)(C)C(=O)NC(C)C)cccc2n1", "organism": "Salmonella typhimurium", "assay": "reverse mutation, plate incorporation", "test system": "TA98", "conditions": "1 µg/plate, without S9", "quantity": "mean revertant colonies", "value": "24 colonies/plate"}
{"Structure (SMILES)": "N[C@@H](CO)C(=O)O", "organism": "Escherichia coli", "test system": "MG1655, M9 medium", "conditions": "1 mM, 1 mM equimolar amino acid mixture", "quantity": "uptake half-time", "value": "2.7 h"}
{"Structure (SMILES)": "CC[C@H](CO)N(CCN(N=O)[C@H](CC)CO)N=O", "organism": "Escherichia coli", "assay": "mutagenicity, Ames plate incorporation", "test system": "WP2 uvrA pKM101", "conditions": "500 µg/plate, without S9, methanol", "quantity": "revertant colonies per plate", "value": "133 ± 20"}
{"note": "Repeated from above:"}
{"Structure (SMILES)": "Cc1cc(N)c2c(OCC(C)(C)C(=O)NC(C)C)cccc2n1", "organism": "Salmonella typhimurium", "assay": "reverse mutation, plate incorporation", "test system": "TA98", "conditions": "1 µg/plate, without S9", "quantity": "mean revertant colonies", "value": "24 colonies/plate"}
